Measurements of several laboratories.
Lines come from different studies, so protocols differ. Several values in a cell are separate wells, animals, samples, runs or records. ± marks the error that the study gave. Values after ≈ are worked out from the molar mass of the structure shown.
BCHE: Cholinesterase (BCHE, Homo sapiens, UniProt P06276)
Chain of UniProt P06276 (whole entry, looked up): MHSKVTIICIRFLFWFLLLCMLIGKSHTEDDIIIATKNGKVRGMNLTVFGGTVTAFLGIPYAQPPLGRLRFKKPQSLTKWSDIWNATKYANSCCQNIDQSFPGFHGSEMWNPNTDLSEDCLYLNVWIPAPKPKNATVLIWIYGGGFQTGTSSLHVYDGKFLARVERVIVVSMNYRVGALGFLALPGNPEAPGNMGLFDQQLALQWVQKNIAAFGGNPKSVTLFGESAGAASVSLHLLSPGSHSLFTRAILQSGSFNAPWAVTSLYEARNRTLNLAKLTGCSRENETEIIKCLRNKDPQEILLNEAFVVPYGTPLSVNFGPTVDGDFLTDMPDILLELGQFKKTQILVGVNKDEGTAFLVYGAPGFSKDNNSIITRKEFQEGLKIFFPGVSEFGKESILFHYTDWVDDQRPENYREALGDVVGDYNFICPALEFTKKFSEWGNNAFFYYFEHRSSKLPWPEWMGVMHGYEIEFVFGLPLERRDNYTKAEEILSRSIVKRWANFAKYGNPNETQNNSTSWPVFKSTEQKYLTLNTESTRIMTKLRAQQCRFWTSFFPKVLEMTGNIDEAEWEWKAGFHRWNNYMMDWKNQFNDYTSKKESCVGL

With Cc1cc(C)c(CNC(=O)c2cc(Cl)c3c(c2C)O[C@@](C)([C@H]2CC[C@H](N(C)C)CC2)O3)c(=O)[nH]1 the Diarrhoea incidence was 0% (human, relapsed/refractory NHL; concentration not given, treatment-related TEAEs, grade 5).
The IC50 of CN1CCc2cc(Cl)c(O)cc2[C@@H](c2cccc3c2OCC3)C1 is reported as 3.87 ± 1.97 µM (BCHE; enzyme activity, inhibitor; Triton).
O=C(O)CCCOc1ccc(F)cc1-c1cc(-c2ccccc2C(F)(F)F)n(-c2ccccc2)n1 gave an organ weight of 0.98 ± 0.07 g (female Crl:CD(SD) rats, lungs; intravenous, 25 µg/kg, 1 d).
Under “treatment-related adverse event incidence”, COc1ccc(-c2c(-c3ccc(C#N)c(F)c3)nc(N3CCC(N)CC3)n(C)c2=O)cc1F is recorded as 0% (refers to: Fatigue/asthenia; neuroendocrine neoplasm patients; oral, 60 mg, grade 3 to 4, dose expansion).
CC(=O)c1c(C)c2cnc(Nc3ccc(C4CCN(CCS(C)(=O)=O)CC4)cn3)nc2n(C2CCCC2)c1=O — result for “elimination rate constant”: 3.06e-05 s⁻¹ (human patients, plasma; oral, 100 mg twice daily, day 1 single dose, added: fulvestrant).
For N[C@@H]1c2ccccc2OC12CCN(c1cnc3c(N4CCCc5ncccc54)n[nH]c3n1)CC2, “platelet count decreased AE incidence” read 21% (phase Ia; patients advanced metastatic solid tumours; oral, dose not given, all doses, any relationship).
For c1ccc2c(c1)cc1ccc3cccc4ccc2c1c34, “literature range of log K” read 5.75 to 7.24 log units (polyethylene-water partitioning; PAH compilation).
O=C(Nc1ccccc1)C1CCN(C(=O)Oc2cccnc2)CC1 — result for “adverse event Malaise”: 7.1% (healthy women; oral, 60 mg, 7 days).
CN(C)CC[C@@H](c1ccc(Cl)cc1)c1ccccn1 has an IC50 of 5.01 µM (Plasmodium falciparum; 7G8).
Clc1ccc(-c2ccc(Cl)c(Cl)c2)cc1Cl gave a log K(PDMS-water) of 5.53 ± 0.06 (fresh water; 20 °C, S30-1 sampler, 30 µm).
Under “subjects with severe AEs”, CC(=O)N(C)[C@H]1CCN(C(=O)c2cnc3c(c2)C[C@](C)(c2ccc(F)cc2)N3)C1 is recorded as 0% (healthy male human; oral, 60 mg once daily, multiple rising dose, added: midazolam).
For COc1cc2c(Oc3ccc4[nH]c(C)cc4c3F)ccnc2cc1OCC1(N)CC1, “grade 3 Appendicitis” read 9.1% (paediatric recurrent refractory sarcoma; 12 mg).
Under “patients with AST increased”, C=CC(=O)Nc1cc(Nc2nccc(Nc3cc(Cl)c(F)cc3C(C)(C)O)n2)c(OC)cc1N1CC[C@@H](N(C)C)C1 is recorded as 9.8% (human patients; oral, 300 mg, treatment-emergent adverse events).
For O=S(=O)(Nc1ccccc1)c1ccc(NC(=S)Nc2ccccc2)cc1, “mean platelet volume” read 4.85 fL (mouse, female, blood; oral, 80 mg/kg daily, 14 days).
Clc1ccc(Cl)c(-c2cc(Cl)ccc2Cl)c1 gave a log K(PDMS-water) of 5.56 ± 0.01 (fresh water; 20 °C, S30-2 sampler, 30 µm).
With O[C@H]1CCCN[C@@H]1CCCn1cnc2c(Cl)c(Cl)ccc21 the Cmax was 310 ng/mL (healthy human, plasma; oral, 150 mg twice daily, steady state).
For CC(C)C[C@@H]1NC(=O)CNC(=O)[C@H](CC(N)=O)NC(=O)[C@H](CCCNC(=N)N)NC(=O)[C@H]([C@@H](C)O)NC(=O)[C@@H]2CSSC[C@@H]3NC(=O)[C@H]([C@@H](C)O)NC(=O)CNC(=O)CNC(=O)[C@H](C(C)C)NC(=O)[C@@H]4CSSC[C@H](NC(=O)[C@H]([C@@H](C)O)NC(=O)[C@H](CSSC[C@H](NC(=O)[C@H](C(C)C)NC(=O)[C@@H]5CCCN5C1=O)C(=O)N[C@@H](CCCCN)C(=O)N[C@@H](CCC(=O)O)C(=O)N[C@@H]([C@@H](C)O)C(=O)N4)NC(=O)CNC(=O)[C@@H]1CCCN1C(=O)[C@H]([C@@H](C)O)NC(=O)[C@H](CC(N)=O)NC3=O)C(=O)N[C@@H](CO)C(=O)N[C@@H](Cc1c[nH]c3ccccc13)C(=O)N1CCC[C@H]1C(=O)N[C@@H](C(C)C)C(=O)N2, the remaining peptide was 25.1 ± 3.8% (HPLC; ammonium bicarbonate 0.1 M; 180 µM, 14 days, pH 9.0, 37 °C, deamidation stability).
Under “incidence of Mucositis TRAE”, CO[C@H]1C[C@@H]2CC[C@@H](C)[C@@](O)(O2)C(=O)C(=O)N2CCCC[C@H]2C(=O)O[C@H]([C@H](C)C[C@@H]2CC[C@@H](OC(=O)NCCOCCOCCOCCOCCOCCOCCOCCOCCC(=O)N3CCc4cc(Cn5nc(-c6ccc7oc(N)nc7c6)c6c(N)ncnc65)ccc4C3)[C@H](OC)C2)C[C@@H](O)[C@H](C)/C=C(\C)[C@@H](O)[C@@H](OC)C(=O)[C@H](C)C[C@H](C)/C=C/C=C/C=C/1C is recorded as 10.5% (patients with advanced solid tumours; intravenous, dose not given, grade ≥3).
The Tmax of CN[C@H]1CC[C@@H](c2ccc(Cl)c(Cl)c2)c2ccccc21 is reported as 1 h (CD-1 mouse, male, lung; intraperitoneal, 1 mg/kg).
COc1cccc(Oc2ccccc2NC(=O)CNC(=O)c2cccc3ccccc23)c1 gave a serum phosphorus of 12.6 mg/dL and 10.9 mg/dL and 10.8 mg/dL (esterase-deficient SCID mice, male; oral, 100 mg/kg/day, 14 days, toxicity study).
For NC(=O)[C@H]1CCN(c2ncnc(N)c2F)C[C@@H]1N1CCC[C@@H](Nc2cc(Cl)cc(C(F)(F)F)c2)C1=O, “any grade ≥3 adverse event” read 29% (B-cell malignancy patients; oral, 82 mg twice daily, dose).
With Cc1ccccc1NC(=O)Nc1ccc(CC(=O)N[C@@H](CCCCNC(=O)/C=C/c2cccnc2)C(=O)N[C@@H](CCCC(=O)O)C(=O)NC2(C(=O)NCCOCCOCCOCCOCC(=O)N[C@@H](CCCCNC(=S)Nc3ccc(C[C@H]4CN(CC(=O)O)CCN(CC(=O)O)CCN4CC(=O)O)cc3)C(N)=O)CCCCC2)cc1 [gallium-68 labelled] the log D was -2.18 ± 0.03 (shake flask; octanol/PBS; pH 7.4).
With Clc1ccc(Cl)c(-c2ccccc2Cl)c1 the log K(PDMS-water) was 4.97 ± 0.05 (fresh water; 20 °C).
For COc1cc2c(cc1OC)CN(CCc1ccc(NC(=O)c3cccc4c(=O)c5cccc(OC)c5[nH]c34)cc1)CC2, the AUC(0-t) was 8520 ng·h/mL (CD-1 mouse, male, plasma; intraperitoneal, 10 mg/kg).
CC(C)[C@@H]1NC(=O)CNC(=O)[C@H](CC(N)=O)NC(=O)[C@H](CCCNC(=N)N)NC(=O)[C@H](Cc2ccc(O)cc2)NC(=O)[C@H](C(C)C)NC(=O)[C@@H](NC(=O)[C@@H](NC(=O)[C@H](CC(N)=O)NC(=O)[C@H](Cc2c[nH]c3ccccc23)NC(=O)[C@H](C)NC(=O)[C@H](Cc2ccccc2)NC(=O)CN)C(C)C)CSSC[C@@H](C(=O)N[C@@H](Cc2c[nH]cn2)C(=O)N[C@@H](CCCNC(=N)N)C(=O)N[C@@H](CCCNC(=N)N)C(=O)N[C@@H](C)C(=O)N[C@@H](CC(N)=O)C(N)=O)NC(=O)[C@H](C(C)C)NC(=O)[C@H](CCCNC(=N)N)NC1=O — result for “secondary structure content”: 5.96% (circular dichroism, refers to: α-Helix; PBS; 80 µM, pH 7.4, added: LPS 1 µM).
CC[C@H](C)[C@H](NC(C)=O)C(=O)N[C@H]1CSSC[C@@H](C(=O)N[C@H](C(N)=O)[C@@H](C)O)NC(=O)[C@H](CCCNC(=N)N)NC(=O)[C@H](Cc2c[nH]cn2)NC(=O)[C@H](Cc2cccc3ccccc23)NC(=O)CNC(=O)[C@H](Cc2c[nH]c3ccccc23)NC(=O)[C@H](CC(=O)O)NC(=O)[C@H](CCC(N)=O)NC(=O)[C@H](Cc2cn(C)c3ccccc23)NC(=O)[C@H](C(C)C)NC1=O — result for “log retention factor”: 1.01 (isocratic RP-HPLC, C18; 32% acetonitrile, phosphate pH 7.4, 1% TFA; 25 °C).
CN1CC[C@@H](c2c(O)cc(O)c3c(=O)cc(-c4ccc(C(F)(F)F)cc4Cl)oc23)[C@@H]1CO — result for “patients with adverse event”: 0% (refers to: rectal abscess; B-cell malignancies; oral, 200 mg, grade 3 to 4, intermittent dosing).
For Cc1cccc(Cn2nc(C3CC3)c3c(NC(=O)c4cnc5cc(OCCN6CCN(C)CC6)ccn45)cccc32)n1, “adverse events incidence” read 26.3% (refers to: Anemia; human advanced solid tumours; oral, dose not given, all-causality,, all doses).
O=[N+]([O-])c1cc2c3c(ccc2c2ccccc12)[C@@H](O)[C@H](O)C=C3 — result for “tumours per rat”: 0.17 ± 0.67 (refers to: adenoma mammary tumours; female Sprague-Dawley rats; intramammary, 12.3 µmol per rat, up to 32 weeks).
For COc1ccnc(C(=O)N[C@H]2COC(=O)[C@H](Cc3ccccc3)[C@@H](OC(=O)C(C)C)[C@H](C)OC2=O)c1OCOC(=O)C(C)C, the storage stability was 3 months (bovine liver; -18 °C).
For Cc1nnc(NN)c2c1[nH]c1ccccc12, the IC50 was > 100 µM (Gag-Pol polyprotein, integrase (gag-pol, Human immunodeficiency virus 1, UniProt P12497); 3'-processing activity, inhibitor; wild-type integrase).
With O=c1nc(-c2ccccn2)sc2ccccc12 the IC50 was 6.18 ± 2.84 µM (BCHE; enzyme activity, inhibitor; Triton).
O=C(NCCCNc1nc(Nc2cccc(NC(=O)N3CCCC3)c2)ncc1I)c1cccs1 has a solubility of 1950 ± 120 µg/mL (≈ 3.3 mM) (Labrasol; 24 h, 37 °C).
O=C1Nc2cc3[nH]nc(-c4ccncc4)c3cc2CN1Cc1ccccc1 — result for “patients with abdominal pain”: 0% (CTCAE v4.03; advanced solid tumour patients; intravenous, 9.6 mg/kg, schedules 1/2).
For O=C(O)[C@H]1O[C@@H](Oc2cc3oc(-c4ccccc4)cc(=O)c3c(O)c2O)[C@H](O)[C@@H](O)[C@@H]1O, the Vz/F was 5470 ± 1940 L/kg (Sprague Dawley rat, plasma; oral, 10 g lyophilized powder/kg, high dose).
For CCc1ccc(CC/C=C/c2ccc3c(c2)C(=O)CC3)cc1, the CHCM was 315 g/L (Sprague-Dawley rat, male; oral, 30 mg/kg/day, 14 days).
Clc1ccc(-c2ccccc2)cc1 has a serum CO2 of 17 ± 4 mmol/L (rat Sprague-Dawley female, serum; inhalation, 23 µg/rat, 2 h).
With Cc1ccc(-c2ccnc(Nc3ccc(N4CCN(C)CC4)c(C(F)(F)F)c3)n2)cc1 the toxicity was 0% (zebrafish embryos; 25 µM, 5 d).
For C[C@@H](NC(=O)N1C(=O)[C@H](Cc2ccnc(N)c2)[C@H]1C(=O)O)C1CCCCC1, “incidence of elevated blood uric acid” read 12.5% (healthy adult Chinese volunteers; continuous intravenous infusion, 0.6 mg/kg/h, 5-day infusion, CTCAE 5.0 grading).
CC[N+](CC)(CC)CCOc1ccc(/C=C/c2ccccc2)cc1 gave an IC50 of 0.501 µM (Plasmodium falciparum; D10).
For CC(C)[C@H](C(=O)O[C@H](C#N)c1cccc(Oc2ccccc2)c1)c1ccc(Cl)cc1, “enzyme contribution to clearance” read 0.7% (refers to: CYP2B6; human, age 1 year).
CC(C)CC(=O)OC[C@H]1O[C@@](C#N)(c2ccc3c(N)ncnn23)[C@H](O)[C@@H]1O: “recovery in urine” 0.00116% (Sprague-Dawley rat, female, urine; 80 mg/kg, time not given; reference: dose).
CCN1[C@@H](C(=O)NC23CCC(C(=O)O)(CC2)CC3)[C@H](c2cccc(Cl)c2F)[C@]2(C(=O)Nc3cc(Cl)ccc32)C12CCCCC2 has an Embolism incidence of 4.8% (patients with advanced solid tumours; oral, dose not given, all doses).
C[C@]1(CO)Cc2ncn(-c3ccc(C#N)c(Cl)c3)c2C(=O)O1: “any adverse event incidence” 16.7% (Japanese subjects; 80 mg single dose).
The nausea patients of CCN(CCO)CCCC(C)Nc1ccnc2cc(Cl)ccc12 (stereo not drawn) is reported as 66% (newly diagnosed glioblastoma patients; oral, 200 mg/dose, grade 1, added: radiotherapy and temozolomide).

Some of these lines once more:
CCN1[C@@H](C(=O)NC23CCC(C(=O)O)(CC2)CC3)[C@H](c2cccc(Cl)c2F)[C@]2(C(=O)Nc3cc(Cl)ccc32)C12CCCCC2 has an Embolism incidence of 4.8% (patients with advanced solid tumours; oral, dose not given, all doses).
Under “treatment-related adverse event incidence”, COc1ccc(-c2c(-c3ccc(C#N)c(F)c3)nc(N3CCC(N)CC3)n(C)c2=O)cc1F is recorded as 0% (refers to: Fatigue/asthenia; neuroendocrine neoplasm patients; oral, 60 mg, grade 3 to 4, dose expansion).
For COc1cc2c(cc1OC)CN(CCc1ccc(NC(=O)c3cccc4c(=O)c5cccc(OC)c5[nH]c34)cc1)CC2, the AUC(0-t) was 8520 ng·h/mL (CD-1 mouse, male, plasma; intraperitoneal, 10 mg/kg).
Clc1ccc(Cl)c(-c2cc(Cl)ccc2Cl)c1 gave a log K(PDMS-water) of 5.56 ± 0.01 (fresh water; 20 °C, S30-2 sampler, 30 µm).
COc1cccc(Oc2ccccc2NC(=O)CNC(=O)c2cccc3ccccc23)c1 gave a serum phosphorus of 12.6 mg/dL and 10.9 mg/dL and 10.8 mg/dL (esterase-deficient SCID mice, male; oral, 100 mg/kg/day, 14 days, toxicity study).
